Experimental data gathered from unrelated publications.
Parts stem from different laboratories: compare values within a part only. Substitutions count along the parent as printed.

Block 1
Target: Centromere-binding protein 1, full length, N-terminal tag (CBF1, Saccharomyces cerevisiae, UniProt P17106, residues 1-351)
Sequence of UniProt P17106 (whole entry, looked up): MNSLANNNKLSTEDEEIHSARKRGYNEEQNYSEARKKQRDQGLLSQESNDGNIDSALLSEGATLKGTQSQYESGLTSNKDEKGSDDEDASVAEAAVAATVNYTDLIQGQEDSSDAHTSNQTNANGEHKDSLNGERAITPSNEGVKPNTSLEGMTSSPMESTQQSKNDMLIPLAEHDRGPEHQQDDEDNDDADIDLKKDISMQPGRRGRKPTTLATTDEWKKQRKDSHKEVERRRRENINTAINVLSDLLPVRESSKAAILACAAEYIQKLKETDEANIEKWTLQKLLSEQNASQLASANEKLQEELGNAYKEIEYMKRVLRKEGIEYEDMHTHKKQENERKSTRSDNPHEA
Method: protein-binding microarray
Molecule type: double-stranded DNA, one strand shown
Sample: in vitro
Concentration: 0.8 µM
Notes: whole 60-bp probe, no competitor
Reading: higher = stronger binding
Shared flanks, not repeated: … GTCTTGATTCGCTTGACGCTGCTG
`CTAAAACCCAAGCGCTATGATCACAAACGGCGATTC` has a fluorescence intensity of 515 a.u.
`GAAACTTTTTTCCCACACGTGCTTATGGGCCGCTAG` gave a fluorescence intensity of 7440 a.u.
For `CCTAACTACTATAACCATGTGATATAGCTTCGTACA`, the fluorescence intensity was 1990 a.u.
With `GAATTTGCAATAGATCAGATGATATCTCACTCTTAG` the fluorescence intensity was 765 a.u.
For `CTATCTGAGCCATCTCTCCTGATATATAAGACATTC`, the fluorescence intensity was 503 a.u.
The fluorescence intensity of `CTACACATTGGTATCTTGGTGATGAAAAATGACTTC` is reported as 537 a.u.

Block 2
Target: TAR DNA-binding protein 43, full length, His tag (TARDBP, Homo sapiens, UniProt Q13148, residues 1-414)
Method: RNA Bind-n-Seq
Molecule type: RNA
Sample: in vitro
Concentration: 20 nM
Notes: 6-mer, flanks averaged, single round
Added: 150 mM KCl
Reference: input library
Reading: higher = stronger binding
Under “6-mer enrichment (R)”, `AGCCGA` is recorded as 0.832.
`ACGUUA`: “6-mer enrichment (R)” 0.595.
`ACUAAA`: “6-mer enrichment (R)” 0.637.
`CCGGGA`: “6-mer enrichment (R)” 1.83.
Under “6-mer enrichment (R)”, `AUCGCA` is recorded as 0.635.

Block 3
Target: CCNE1, cyclin fold, Cln2 fusion (human)
Method: yeast growth competition, sequencing
Sample: yeast
Notes: strong parent motif
Reference: not given
Reading: higher = stronger binding
Starting sequence: BRCA2 docking peptide (human); PSIKRNLLNEFDR; partner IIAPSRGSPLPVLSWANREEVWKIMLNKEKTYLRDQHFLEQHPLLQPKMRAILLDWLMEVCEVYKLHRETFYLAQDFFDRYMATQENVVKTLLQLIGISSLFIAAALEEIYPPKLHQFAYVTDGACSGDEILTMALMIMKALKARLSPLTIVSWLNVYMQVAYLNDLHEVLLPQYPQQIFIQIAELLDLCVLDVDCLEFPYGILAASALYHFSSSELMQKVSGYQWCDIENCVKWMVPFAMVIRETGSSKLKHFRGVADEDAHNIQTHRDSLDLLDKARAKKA
Under “normalised enrichment score”, `PSIKRLLLNEFDR [N6L]` is recorded as 0.499.
For `LSIKRNLLNEFDR [P1L]`, “normalised enrichment score” read 1.88.
`PSIKRNMLNEFDR [L7M]` — result for “normalised enrichment score”: 0.0306.
For `PWIKRNLLNEFDR [S2W]`, “normalised enrichment score” read 0.967.
`PSIKRNLLNEFKR [D12K]`: “normalised enrichment score” 0.616.

Mixed results
`PhoQ, residues 284 288 289 292 302 303 GTAMQF` has a fold induction of 16.8 (PhoP, residues 12 14 15 18 19 LWHVM (Escherichia coli, UniProt P23836); Sort-seq, refers to: YFP reporter; E. coli; PhoQ-PhoP variant library, added: 10 µM Mg2+; reference: high Mg2+ state, higher = stronger signaling).
